{"data": "Results pooled from the literature", "note": "Numbered parts are unrelated; each lists some results of a single study."}
{"data": "Study 1", "target": "RNA binding protein fox-1 homolog 2, RRM domain, GST-SBP tag (RBFOX2, Homo sapiens, UniProt O43251-10, residues 100-194)", "technique": "RNA Bind-n-Seq", "molecule type": "RNA", "matrix": "in vitro", "tested at": "365 nM", "setting": "natural RNA segment, single round, ends assumed", "reference": "no-protein control", "reading": "higher = stronger binding", "Target sequence (chain)": "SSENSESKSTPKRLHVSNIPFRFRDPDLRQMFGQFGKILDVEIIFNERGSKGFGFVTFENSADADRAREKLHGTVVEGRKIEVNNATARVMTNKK"}
{"Sequence": "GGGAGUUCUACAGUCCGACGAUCCUACAGAGUGAGUUCCAGGACAGCCGGGGCUAUACAGAGAAACCCUGGGGAAACCCUUGGGGAAAAAAAAACAGUUCCUAAGUAGUGUGCCUGUCAACUUUGCAGACUGCUGGAAUUCUCGGGUGCCAA", "RBNS enrichment (R)": 0.281}
{"Sequence": "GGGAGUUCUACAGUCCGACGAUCCUGGUAAAACAUAGGCUUUUCUGUUUAAUUAAGUAUUAGACCAGUCUGUAGAUAUAAUCUGAAAAGAUUGUAGGCAGUAAUGAAGACAGUUGGGGAAAGGAGAAGGCCCUUGGAAUUCUCGGGUGCCAA", "RBNS enrichment (R)": 0.537}
{"Sequence": "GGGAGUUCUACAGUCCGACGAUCUGACACACACGCCAUCAGCCCUUGGGUGAUGACAGUGACCAGUGUUGUAUGGGGCUUUCCCAGAAUCCCCUUCCCUGAGCAUCCUGGUCUCCCCCACACACACCUGUCACUGGAAUUCUCGGGUGCCAA", "RBNS enrichment (R)": 0.332}
{"Sequence": "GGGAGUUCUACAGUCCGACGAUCGCUGUGGCCAGACAGAUGACACCUUUUGUUAUGUUGAAAUUAACUUGCUAGGCAACCCUAAAUUGGGAAGCAAGUAGCUAGUAUAAAGGCCCUCAAUUGUAGUUGUUUCCUGGAAUUCUCGGGUGCCAA", "RBNS enrichment (R)": 0.321}
{"Sequence": "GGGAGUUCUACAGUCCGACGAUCUUUAACAAGGAUAUUUAUGUAAUAAGAAACUUUGCCUUAGGCAGGUGUUGGCCAGAAAAGUCCAGAUUCCUCUGGGAUCCCACCCUGGCCUCUCCUGGAACUCUGAACCUUGGAAUUCUCGGGUGCCAA", "RBNS enrichment (R)": 0.177}
{"Sequence": "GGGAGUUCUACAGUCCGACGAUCGCAGUCUCAUGCAUGAGAGGUUACCCUUCAGGAUGACAGAGCUGAGGGUCUUUGUAGGAGUUGCUCUUGCUGUGUAAAGCACUAUUGUCUUGGGGUUGAGCCCUAGGGCAUGGAAUUCUCGGGUGCCAA", "RBNS enrichment (R)": 14.4}
{"Sequence": "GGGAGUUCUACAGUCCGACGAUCCUUCGGGAAUGUUUAAGAUCGAUCAGUAAAUAACUUCCCAGAAGACCACCCUAUGUCUAUUAAGCCUGAGGGCAGGGGAUCCUGAGCACACUUUGGGCAGAAAUAAGUCAUGGAAUUCUCGGGUGCCAA", "RBNS enrichment (R)": 1.44}
{"Sequence": "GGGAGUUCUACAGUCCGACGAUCGCACUGGGCUGAGGGGGUCUCAGCUGGUCUGGAGUCCAGACCUCGCCAUCCCCUGCCCACCAUUGCCGUGGAGGGGGCUGCCAGGCAUAGCUGCUGUGAGCCAUGUCCUUUGGAAUUCUCGGGUGCCAA", "RBNS enrichment (R)": 0.336}
{"Sequence": "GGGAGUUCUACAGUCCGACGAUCCAGGUGGUAGCUAGGGACCGUCCAUCAGUGGUCCUUCCCUCCACCGCCACGCCAGCUCCUGGGUCGUUUUCAUUUAUCUGGCAGAGCCCAGGACCCUUAGAAUCAUAUUUUGGAAUUCUCGGGUGCCAA", "RBNS enrichment (R)": 0.381}
{"data": "Study 2", "target": "Interferon regulatory factor 7, full length, phosphomimetic (IRF7, Homo sapiens, UniProt Q92985, residues 1-503, S101K/S471D/S472D/S475D/S476D/S477D/S483D/S484D/S487D)", "technique": "protein-binding microarray", "molecule type": "double-stranded DNA, one strand shown", "matrix": "in vitro", "tested at": "250 nM", "setting": "60-bp whole probe", "together with": "salmon DNA 0.4 mg/ml", "reference": "random background probes", "reading": "higher = stronger binding", "constant ends, left off below": "GCCTAGCAC … GTCTTGATTCGCTTGACGCTGCTG", "sequence of UniProt Q92985 (whole entry, unmodified, looked up)": "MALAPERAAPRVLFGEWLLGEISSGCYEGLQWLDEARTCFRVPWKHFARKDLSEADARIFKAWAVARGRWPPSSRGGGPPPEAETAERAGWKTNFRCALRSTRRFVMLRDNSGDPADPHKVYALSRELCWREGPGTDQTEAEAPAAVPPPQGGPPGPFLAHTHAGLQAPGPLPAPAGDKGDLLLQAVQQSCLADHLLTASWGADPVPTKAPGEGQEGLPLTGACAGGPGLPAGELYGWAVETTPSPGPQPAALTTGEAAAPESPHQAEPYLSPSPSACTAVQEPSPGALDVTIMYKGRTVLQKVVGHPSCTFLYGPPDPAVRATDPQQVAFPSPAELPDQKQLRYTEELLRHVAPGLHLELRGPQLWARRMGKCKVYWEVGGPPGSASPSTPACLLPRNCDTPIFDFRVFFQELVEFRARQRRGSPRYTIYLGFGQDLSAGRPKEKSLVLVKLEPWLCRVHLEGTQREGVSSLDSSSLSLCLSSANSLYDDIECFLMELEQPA"}
{"Sequence": "GACGGTATCCTTATCCTAACGTGCTAG", "log fluorescence [z-score]": 0.445}
{"Sequence": "GACGGTCTCCTTTTCCAGACGTGCTAG", "log fluorescence [z-score]": 1.27}
{"Sequence": "GACAATATCAGACTGGAGACGTGCTAG", "log fluorescence [z-score]": -0.0782}
{"Sequence": "GACGGTTTCGGGTTCCGGGACGTGCTA", "log fluorescence [z-score]": 11.7}
{"Sequence": "TTAGGTCTCGACTATCGGTTAGTGCTA", "log fluorescence [z-score]": 0.854}
{"Sequence": "TTAGATTTCGGGTATCGAGTAGTGCTA", "log fluorescence [z-score]": 1.02}
{"data": "Study 3", "target": "Sal-like protein 4, full length isoform B (SALL4, Homo sapiens, UniProt Q9UJQ4-2, residues 1-616)", "technique": "universal PBM", "molecule type": "double-stranded DNA, one strand shown", "matrix": "in vitro", "tested at": "not given", "setting": "8-mer, flanks averaged, mean of replicates", "reading": "higher = stronger binding", "Residues (chain)": "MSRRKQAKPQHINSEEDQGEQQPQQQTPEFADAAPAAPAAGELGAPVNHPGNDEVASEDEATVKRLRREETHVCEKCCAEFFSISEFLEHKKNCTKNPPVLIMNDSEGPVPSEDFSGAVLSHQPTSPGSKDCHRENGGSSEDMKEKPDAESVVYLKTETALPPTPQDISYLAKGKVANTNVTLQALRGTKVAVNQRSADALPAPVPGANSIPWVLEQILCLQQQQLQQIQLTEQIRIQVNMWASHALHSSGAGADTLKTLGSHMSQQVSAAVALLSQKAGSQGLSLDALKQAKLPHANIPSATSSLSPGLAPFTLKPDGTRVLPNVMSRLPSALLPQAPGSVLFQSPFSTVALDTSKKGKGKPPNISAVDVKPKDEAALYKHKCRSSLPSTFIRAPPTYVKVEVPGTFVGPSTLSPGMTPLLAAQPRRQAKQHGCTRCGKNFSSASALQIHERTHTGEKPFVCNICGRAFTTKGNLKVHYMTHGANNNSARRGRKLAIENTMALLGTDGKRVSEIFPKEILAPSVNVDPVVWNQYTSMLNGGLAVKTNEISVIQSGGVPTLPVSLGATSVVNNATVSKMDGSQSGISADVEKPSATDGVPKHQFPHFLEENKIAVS"}
{"Sequence": "GTACTAAA", "E-score": 0.244}
{"Sequence": "ACGCTACA", "E-score": 0.0374}
{"Sequence": "ACCAACCA", "E-score": -0.0319}
{"Sequence": "AGGGGTTA", "E-score": -0.107}
{"Sequence": "CCCACAGC", "E-score": -0.142}
{"data": "Further values, each from its own experiment"}
{"Substance": "PhoQ, residues 284 288 289 292 302 303 NSMLDC", "target": "PhoP, residues 12 14 15 18 19 NHFIF (Escherichia coli, UniProt P23836)", "assay": "Sort-seq, measured: YFP reporter", "test system": "E. coli", "conditions": "PhoQ-PhoP variant library, together with: 10 µM Mg2+", "how to read": "reference: high Mg2+ state, higher = stronger signaling", "measurement": "fold induction", "value": 22.8}
{"note": "Some of these lines once more (study 1):"}
{"Sequence": "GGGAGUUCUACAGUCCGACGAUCCAGGUGGUAGCUAGGGACCGUCCAUCAGUGGUCCUUCCCUCCACCGCCACGCCAGCUCCUGGGUCGUUUUCAUUUAUCUGGCAGAGCCCAGGACCCUUAGAAUCAUAUUUUGGAAUUCUCGGGUGCCAA", "RBNS enrichment (R)": 0.381}
{"Sequence": "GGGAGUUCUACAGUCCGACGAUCGCUGUGGCCAGACAGAUGACACCUUUUGUUAUGUUGAAAUUAACUUGCUAGGCAACCCUAAAUUGGGAAGCAAGUAGCUAGUAUAAAGGCCCUCAAUUGUAGUUGUUUCCUGGAAUUCUCGGGUGCCAA", "RBNS enrichment (R)": 0.321}
{"Sequence": "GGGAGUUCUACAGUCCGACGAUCCUUCGGGAAUGUUUAAGAUCGAUCAGUAAAUAACUUCCCAGAAGACCACCCUAUGUCUAUUAAGCCUGAGGGCAGGGGAUCCUGAGCACACUUUGGGCAGAAAUAAGUCAUGGAAUUCUCGGGUGCCAA", "RBNS enrichment (R)": 1.44}
